Assay results collected from several papers.
Each line is one published result; not all experiments were run side by side.
MTNR1B: Melatonin receptor type 1B (MTNR1B, Homo sapiens, UniProt P49286)
Chain of UniProt P49286 (whole entry, looked up): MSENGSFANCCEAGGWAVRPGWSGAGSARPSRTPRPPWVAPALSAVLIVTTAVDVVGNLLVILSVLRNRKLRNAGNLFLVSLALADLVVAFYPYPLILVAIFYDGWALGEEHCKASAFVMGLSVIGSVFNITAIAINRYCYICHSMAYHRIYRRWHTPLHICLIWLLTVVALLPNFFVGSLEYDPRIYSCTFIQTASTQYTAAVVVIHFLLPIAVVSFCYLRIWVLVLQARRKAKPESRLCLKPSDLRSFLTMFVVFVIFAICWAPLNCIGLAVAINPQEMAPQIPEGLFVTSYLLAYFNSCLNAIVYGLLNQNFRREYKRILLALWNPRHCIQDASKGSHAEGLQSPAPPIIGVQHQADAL
Chain of UniProt P48039 (whole entry, looked up): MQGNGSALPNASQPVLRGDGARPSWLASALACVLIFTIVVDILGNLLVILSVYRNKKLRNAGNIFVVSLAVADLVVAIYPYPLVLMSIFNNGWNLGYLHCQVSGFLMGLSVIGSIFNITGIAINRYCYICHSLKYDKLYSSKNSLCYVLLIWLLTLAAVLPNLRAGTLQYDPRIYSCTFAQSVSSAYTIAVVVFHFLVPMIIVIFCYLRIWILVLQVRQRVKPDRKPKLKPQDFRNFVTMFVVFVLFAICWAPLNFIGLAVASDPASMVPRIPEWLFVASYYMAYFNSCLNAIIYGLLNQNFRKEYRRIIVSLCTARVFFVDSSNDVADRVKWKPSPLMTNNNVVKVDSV
Chain of UniProt Q00535 (whole entry, looked up): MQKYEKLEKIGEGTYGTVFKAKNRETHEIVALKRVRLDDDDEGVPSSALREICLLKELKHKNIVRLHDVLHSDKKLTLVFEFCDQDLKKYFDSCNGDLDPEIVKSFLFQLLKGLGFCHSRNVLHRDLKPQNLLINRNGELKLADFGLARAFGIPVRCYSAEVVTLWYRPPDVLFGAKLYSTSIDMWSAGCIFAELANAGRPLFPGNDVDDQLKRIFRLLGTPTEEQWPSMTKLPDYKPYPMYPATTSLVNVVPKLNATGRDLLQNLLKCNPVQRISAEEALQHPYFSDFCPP
Chain of UniProt P17948 (whole entry, looked up): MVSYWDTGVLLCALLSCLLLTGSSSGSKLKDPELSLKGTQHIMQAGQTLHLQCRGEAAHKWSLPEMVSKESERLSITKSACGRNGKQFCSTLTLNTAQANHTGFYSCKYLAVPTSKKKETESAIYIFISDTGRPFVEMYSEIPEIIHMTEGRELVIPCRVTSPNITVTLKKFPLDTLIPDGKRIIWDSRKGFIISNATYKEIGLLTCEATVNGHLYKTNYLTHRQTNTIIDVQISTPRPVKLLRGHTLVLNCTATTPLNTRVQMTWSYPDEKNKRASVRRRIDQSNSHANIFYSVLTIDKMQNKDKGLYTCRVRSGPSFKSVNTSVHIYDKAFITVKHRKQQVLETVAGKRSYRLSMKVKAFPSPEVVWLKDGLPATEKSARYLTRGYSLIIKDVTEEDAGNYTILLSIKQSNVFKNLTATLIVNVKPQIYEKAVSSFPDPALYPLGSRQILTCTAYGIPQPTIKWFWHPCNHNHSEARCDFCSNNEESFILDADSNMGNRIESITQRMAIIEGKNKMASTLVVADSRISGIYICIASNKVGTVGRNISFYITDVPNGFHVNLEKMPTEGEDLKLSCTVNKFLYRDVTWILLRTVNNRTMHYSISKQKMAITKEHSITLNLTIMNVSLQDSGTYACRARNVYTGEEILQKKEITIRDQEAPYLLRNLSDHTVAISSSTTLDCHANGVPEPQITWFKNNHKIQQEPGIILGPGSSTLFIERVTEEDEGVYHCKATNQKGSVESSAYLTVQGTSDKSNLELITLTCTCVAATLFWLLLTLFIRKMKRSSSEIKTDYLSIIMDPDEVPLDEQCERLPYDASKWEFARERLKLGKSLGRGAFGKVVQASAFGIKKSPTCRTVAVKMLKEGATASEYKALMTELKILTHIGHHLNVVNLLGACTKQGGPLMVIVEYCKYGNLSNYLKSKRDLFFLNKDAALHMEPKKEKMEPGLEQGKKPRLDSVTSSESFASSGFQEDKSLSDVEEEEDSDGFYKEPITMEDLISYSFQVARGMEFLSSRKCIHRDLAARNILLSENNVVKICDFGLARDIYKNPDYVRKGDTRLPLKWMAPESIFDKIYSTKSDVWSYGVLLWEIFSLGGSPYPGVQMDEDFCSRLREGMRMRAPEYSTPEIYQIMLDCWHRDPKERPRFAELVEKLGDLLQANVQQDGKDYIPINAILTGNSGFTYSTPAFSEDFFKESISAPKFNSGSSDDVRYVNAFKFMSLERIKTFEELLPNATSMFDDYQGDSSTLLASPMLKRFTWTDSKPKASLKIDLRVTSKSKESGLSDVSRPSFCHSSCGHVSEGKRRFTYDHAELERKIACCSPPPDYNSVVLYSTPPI
Chain of UniProt Q8NG66 (whole entry, looked up): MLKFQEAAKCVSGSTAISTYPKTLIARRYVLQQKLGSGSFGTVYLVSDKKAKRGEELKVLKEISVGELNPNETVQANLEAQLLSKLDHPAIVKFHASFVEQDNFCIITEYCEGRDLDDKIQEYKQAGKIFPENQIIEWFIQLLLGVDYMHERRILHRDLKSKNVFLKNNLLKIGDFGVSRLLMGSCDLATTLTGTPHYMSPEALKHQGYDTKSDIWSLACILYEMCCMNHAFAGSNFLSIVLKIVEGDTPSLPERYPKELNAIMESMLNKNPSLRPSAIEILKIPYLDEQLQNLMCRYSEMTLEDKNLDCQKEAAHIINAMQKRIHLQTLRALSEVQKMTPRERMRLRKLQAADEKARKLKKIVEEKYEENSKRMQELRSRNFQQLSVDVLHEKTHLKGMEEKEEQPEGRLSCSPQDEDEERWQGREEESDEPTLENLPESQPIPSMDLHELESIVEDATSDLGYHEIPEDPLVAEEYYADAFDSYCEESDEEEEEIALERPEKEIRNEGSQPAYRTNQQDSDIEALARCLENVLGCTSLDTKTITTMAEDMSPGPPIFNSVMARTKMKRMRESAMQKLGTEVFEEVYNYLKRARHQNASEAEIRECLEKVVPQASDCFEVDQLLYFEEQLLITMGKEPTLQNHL
Chain of UniProt Q8NEV4 (whole entry, looked up): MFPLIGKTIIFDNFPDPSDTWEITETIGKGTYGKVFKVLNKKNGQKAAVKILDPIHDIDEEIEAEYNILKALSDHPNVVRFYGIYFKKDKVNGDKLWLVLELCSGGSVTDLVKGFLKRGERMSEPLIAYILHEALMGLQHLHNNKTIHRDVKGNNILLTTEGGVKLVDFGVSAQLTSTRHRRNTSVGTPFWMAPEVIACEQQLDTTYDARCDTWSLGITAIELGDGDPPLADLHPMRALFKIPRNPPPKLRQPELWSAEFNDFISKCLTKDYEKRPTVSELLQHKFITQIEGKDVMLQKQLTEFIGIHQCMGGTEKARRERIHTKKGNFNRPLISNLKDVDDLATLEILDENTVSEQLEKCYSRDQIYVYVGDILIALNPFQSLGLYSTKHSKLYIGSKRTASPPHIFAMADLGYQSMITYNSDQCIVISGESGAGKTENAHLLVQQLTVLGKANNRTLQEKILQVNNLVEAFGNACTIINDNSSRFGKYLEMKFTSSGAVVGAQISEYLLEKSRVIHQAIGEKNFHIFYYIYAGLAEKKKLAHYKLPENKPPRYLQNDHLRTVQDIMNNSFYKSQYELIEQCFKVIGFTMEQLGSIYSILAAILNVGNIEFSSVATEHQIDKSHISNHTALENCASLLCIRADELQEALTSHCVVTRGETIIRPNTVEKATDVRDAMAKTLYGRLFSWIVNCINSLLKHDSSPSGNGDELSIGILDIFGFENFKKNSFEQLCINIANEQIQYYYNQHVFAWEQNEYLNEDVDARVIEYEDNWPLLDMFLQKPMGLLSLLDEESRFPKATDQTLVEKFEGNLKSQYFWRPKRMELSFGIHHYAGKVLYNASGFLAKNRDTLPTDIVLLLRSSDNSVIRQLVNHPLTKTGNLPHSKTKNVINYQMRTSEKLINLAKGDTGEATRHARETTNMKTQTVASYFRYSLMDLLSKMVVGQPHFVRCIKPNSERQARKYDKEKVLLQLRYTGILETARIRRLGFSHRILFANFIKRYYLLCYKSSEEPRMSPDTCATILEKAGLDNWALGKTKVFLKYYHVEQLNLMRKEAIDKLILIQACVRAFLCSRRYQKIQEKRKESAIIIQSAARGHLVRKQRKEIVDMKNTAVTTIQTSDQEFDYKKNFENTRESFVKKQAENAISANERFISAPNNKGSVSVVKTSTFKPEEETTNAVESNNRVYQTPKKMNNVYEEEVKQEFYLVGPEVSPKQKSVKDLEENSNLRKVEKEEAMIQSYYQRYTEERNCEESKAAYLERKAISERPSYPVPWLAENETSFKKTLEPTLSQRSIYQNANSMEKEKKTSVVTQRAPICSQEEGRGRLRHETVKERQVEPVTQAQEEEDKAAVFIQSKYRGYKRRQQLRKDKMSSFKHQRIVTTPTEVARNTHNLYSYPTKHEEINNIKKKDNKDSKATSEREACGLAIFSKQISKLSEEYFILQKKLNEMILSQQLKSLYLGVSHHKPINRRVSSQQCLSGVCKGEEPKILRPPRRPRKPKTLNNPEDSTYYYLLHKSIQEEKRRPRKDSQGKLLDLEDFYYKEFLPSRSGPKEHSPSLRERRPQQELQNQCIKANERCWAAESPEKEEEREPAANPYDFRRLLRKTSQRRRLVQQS

C1=C/COCc2cc(ccc2OCCN2CCCC2)Nc2nccc(n2)-c2cccc(c2)COC/1
remaining binding (CILK1 (Homo sapiens, UniProt Q9UPZ9); binding; 0.1 µM): 29%

CCCCC(=O)Nc1ccc(-c2ccc3ncn(CCC)c(=O)c3c2)cn1
remaining binding (Myosin-IIIa (MYO3A, Homo sapiens, UniProt Q8NEV4); binding, competition with immobilised ligand; 0.5 µM): 100%

COc1cc(I)c2[nH]cc(CCNC(C)=O)c2c1
Emax (MTNR1B; β-arrestin recruitment, agonist; MT2; 90 min): 95%

CC(=O)/C=C/C=C(C)/C=C/C1=C(C)CC(O)CC1(C)C (stereo in doubt)
ΔTm (D14 (Oryza sativa, UniProt Q10QA5); thermal stability, DSF; 50 µM): 6.92 °C

Cc1cc([C@@H](C)Nc2ccccc2C(=O)O)c2nc(N3CCC(F)(F)CC3)c(C#N)c(=O)n2c1
remaining binding (CSNK1D (Homo sapiens, UniProt P48730); binding, competition with immobilised ligand; 1 µM): 95%

CNc1ncc2c(/C=C/C(=O)N3CCC(OC)CC3)nn(Cc3cccc(C(F)(F)F)c3)c2n1
remaining activity (Cyclin-dependent kinase 12, with cyclin K (CDK12, Homo sapiens, UniProt Q9NYV4); enzyme activity, inhibitor, radiometric; 1 µM): 107%

Cc1cnn2ncc(-c3ccnc(N(C)C)n3)c2c1
remaining binding (CDPK1 (Plasmodium falciparum, UniProt P62344); binding; 1 µM): 78%

CC[C@H](C)[C@H](NC(=O)[C@H](CCC(N)=O)NC(=O)[C@@H](NC(=O)[C@H](CCSC)NC(=O)[C@H](CCCCN)NC(=O)[C@H](CO)NC(=O)[C@@H](NC(=O)[C@H](CCSC)NC(=O)[C@H](CC(C)C)NC(=O)[C@H](CC(N)=O)NC(=O)[C@@H](NC(=O)[C@@H](NC(=O)[C@H](CO)NC(=O)[C@H](CC(C)C)NC(=O)[C@H](C)NC(=O)[C@H](CCCNC(=N)N)NC(=O)[C@H](CCC(=O)O)NC(=O)[C@H](Cc1ccc(O)cc1)NC(=O)[C@H](Cc1ccccc1)NC(=O)[C@H](C)NC(=O)[C@H](CC(N)=O)NC(=O)[C@@H](N)CCCCN)[C@@H](C)CC)[C@@H](C)CC)[C@@H](C)O)C(C)C)C(=O)N[C@@H](CC(N)=O)C(=O)N[C@H](C(=O)O)C(C)C
inhibition (Cyclin-dependent kinase 5, with p35 (CDK5, Homo sapiens, UniProt Q00535); enzyme activity, inhibitor, radiometric; 250 µM): 73%

O=C(NCCc1cccc2ccccc12)C1CCC1
Emax (MTNR1A (Homo sapiens, UniProt P48039); cAMP, agonist, TR-FRET; CHO-K1; 20 min): 22%

COc1cc(-c2cncc3c2CN(C)Cc2cc(N4CCNCC4)ccc2-3)cc(OC)c1OC
remaining activity (DYRK1A (Homo sapiens, UniProt Q13627); enzyme activity, inhibitor; 1 µM): 113%

Nc1ncnc2occ(-c3ccc(NC(=O)Nc4cc(C(F)(F)F)ccc4F)cc3)c12
remaining signal (PIK3CA (Homo sapiens, UniProt P42336, E545A); cell-free assay, inhibitor; 20 µM): 56%

C=CC(=O)N1CCC(COCC(=O)N2CCN(c3nc(-c4cnc(N)nc4C(F)F)nc(N4CCOC[C@@H]4C)n3)CC2)CC1
remaining binding (NEK11 (Homo sapiens, UniProt Q8NG66); binding, competition with immobilised ligand; 1 µM): 65%

NC/C(=C\F)COc1cccc(Cn2c(=S)[nH]c(=O)c3[nH]cnc32)c1
remaining activity (Myeloperoxidase (MPO, Homo sapiens, UniProt P05164); enzyme activity, inhibitor; 28 nM): 109%

Nc1ncnc2c1ncn2[C@@H]1O[C@H](COP(=O)(O)OP(=O)(O)OP(=O)(O)O)[C@@H](O)[C@H]1O
ΔTm (MAP2K1 (Homo sapiens, UniProt Q02750); thermal stability, DSF): 2 °C

COc1ccc2cccc(CCNC(C)=O)c2c1
Emax (MTNR1B; β-arrestin recruitment, agonist; MT2; 90 min): 96%

FC(F)(F)Oc1cccc(-c2cnc3ccc(-c4ccncc4)nn23)c1
activity vs control (FLT1 (Homo sapiens, UniProt P17948); enzyme activity, inhibitor, radiometric; 1 µM): 28%
